Measurements of several laboratories.
Every numbered part comes from another study and shows a few of its results, in no order.

Sample 1
Target: Histone acetyltransferase KAT6A, winged helix 1, GST fusion (KAT6A, Homo sapiens, UniProt Q92794, residues 1-85)
Technique: protein binding microarray
Form: double-stranded DNA, one strand shown
Medium: in vitro
Tested at: not given
Notes: 8-mer, flanks averaged, mean of 2 arrays, mostly near background
Relative to: not given
Direction: higher = stronger binding
Target sequence (chain): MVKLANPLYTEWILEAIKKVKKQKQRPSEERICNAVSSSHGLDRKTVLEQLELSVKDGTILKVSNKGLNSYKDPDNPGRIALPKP
| Strand | E-score |
| --- | --- |
| AGTTCAGC | -0.113 |
| ACCGACTC | 0.0178 |
| GCCGCGCC | 0.439 |
| ACCCCCGA | 0.1 |
| AGTCTTAC | -0.141 |
| AACTTCCG | 0.109 |
| CTGAAAAC | -0.0286 |
| AGGTCAAG | -0.23 |
| ACGCTGAA | 0.168 |
| AGTACAAG | -0.178 |
| CCGCTTGC | 0.32 |
| CGACACAA | -0.169 |

Sample 2
Target: RING finger protein unkempt homolog, zinc fingers 1-6, GST-SBP tag (UNK, Homo sapiens, UniProt Q9C0B0, residues 30-357)
Technique: RNA Bind-n-Seq
Form: RNA
Medium: in vitro
Tested at: not given
Notes: RNA with constant flanks, ends assumed
Relative to: input RNA pool
Direction: higher = stronger binding
Shared flanks, not repeated: GGGAGUUCUACAGUCCGACGAUC … CAACAGAGGAUUGAGCAUCA
Residues (chain): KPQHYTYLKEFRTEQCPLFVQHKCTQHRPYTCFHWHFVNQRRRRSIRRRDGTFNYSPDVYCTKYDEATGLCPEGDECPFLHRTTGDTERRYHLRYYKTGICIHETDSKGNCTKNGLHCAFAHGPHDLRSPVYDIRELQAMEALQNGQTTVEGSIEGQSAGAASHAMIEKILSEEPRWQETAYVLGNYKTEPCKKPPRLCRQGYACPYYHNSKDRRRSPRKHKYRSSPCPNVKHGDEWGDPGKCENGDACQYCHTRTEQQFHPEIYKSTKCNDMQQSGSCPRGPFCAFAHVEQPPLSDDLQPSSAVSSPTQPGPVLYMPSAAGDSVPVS
| Strand | bound/input enrichment [ratio] |
| --- | --- |
| GUGAAAUACGCGUACUACGACACUGAACGCAUCGGAGUUGACCUGAUCAUGAAGACCUGCUUCCGCCCCAACAGAGUGAUUGGACUCUCAAGUGACUUGCAGCAAGUAGGAGGGGCAUCA | 0.0786 |
| GAUGUGGCAUGGUUCCUGACGGAAACUUCCCCCUUCAUGUGGUCGAAUCUGGGCAUUGGCCCCGCAAUUUCUCUGUCUGUGGUUGGAGCAGCCUGGGGAAUCUAUAUAACCGGCUCAUCC | 0.0809 |
| ACUCCAAAGCCACUUCGAAGUAGUGCUGAUCCUGCACUGAAUCAAGAGGUUGCAUUAAAAUCCGAAUCAAGUCCAGAGUCACUGGGACUUUCUUUUACCAUGCCCCAGAUUCAAGAUCAG | 0.132 |
| UGCAUGCUGCUGUUUGUGUUUGGCUUUGUUGGCGGGGCGGUGGUCAUUAAUUCUGCGAUCUCCGUAUCUCUCUCUGUUUUGCUGCUUGUGCACUUUUCUAUUUCUACCGGGGUGCCAGCG | 0.279 |
| UUGGAAGGACCAGAGCCUAAUCAACUGAAACCAUUAGUCAUACAGGCUAUGCCCACCCUAACCGAACUAAUGAAAGACCCCAGUGUAGUUGUUCGAGACACAACAGCGUGGACUGUGGGC | 0.186 |
| GACAGUGAAGAAGAGAUUAGAGAAGCAUUCCGUGUGUUUGAUAAGGAUGGCAAUGGCUAUAUCCGUGCAGCAGAGCUUCGCCAUGUGAUGACAAACCUUGGCGAGAAGUUAACAGAUGAA | 0.332 |
| AUUAAUUGGACAGAACAGAACUACCCUCAAGGGGGGAAAGAGAGUAACAUGUCAGCGUCCGUGGAGAGAGCGAUAGAAGCACUCCAAGGAGAGACGCGCUAUUAUAAUGACCCCCGCUUU | 0.0949 |

Sample 3
Target: Interferon regulatory factor 7, full length, phosphomimetic (IRF7, Homo sapiens, UniProt Q92985, residues 1-503, S471D/S472D/S475D/S476D/S477D/S483D/S484D/S487D)
Technique: protein-binding microarray
Form: double-stranded DNA, one strand shown
Medium: in vitro
Tested at: 2200 nM top
Notes: 60-bp whole probe
Added: salmon DNA 0.4 mg/ml
Relative to: random background probes
Direction: higher = stronger binding
Shared flanks, not repeated: GCCTAGCAC … GTCTTGATTCGCTTGACGCTGCTG
Residues (chain): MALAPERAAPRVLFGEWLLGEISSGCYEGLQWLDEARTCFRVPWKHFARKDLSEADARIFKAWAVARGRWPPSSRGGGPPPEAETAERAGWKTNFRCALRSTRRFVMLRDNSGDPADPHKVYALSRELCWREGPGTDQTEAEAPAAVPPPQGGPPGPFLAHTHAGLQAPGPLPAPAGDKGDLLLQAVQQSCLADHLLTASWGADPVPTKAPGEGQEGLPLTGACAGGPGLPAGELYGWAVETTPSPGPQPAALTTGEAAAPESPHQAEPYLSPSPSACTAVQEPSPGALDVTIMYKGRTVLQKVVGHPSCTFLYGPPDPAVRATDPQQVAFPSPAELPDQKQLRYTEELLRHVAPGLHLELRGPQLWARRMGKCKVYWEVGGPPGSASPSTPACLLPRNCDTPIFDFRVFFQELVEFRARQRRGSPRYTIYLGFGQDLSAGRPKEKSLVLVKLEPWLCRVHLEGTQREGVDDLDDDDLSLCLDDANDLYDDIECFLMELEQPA
| Strand | fitted relative affinity [z-score] |
| --- | --- |
| GGCATTTTTTTTATCAATCAGTGCTAG | -0.066 |
| TCAAAAAAAAAAAACTGTACTGTGCTA | -1.76 |
| TTAGGTATACTACTGCTTTAGTGCTAG | 0.453 |
| TTAGATCCCAGTTTCGATTAGTGCTAG | 6.01 |
| GACGGTCTCGGAATCGGGACGTGCTAG | -0.186 |
| GACGGGTTCGGACTGGGGACGTGCTAG | -0.173 |
| TTAGGTTTCAGTTTCGATTAGTGCTAG | 10.6 |
| AAACTTACCTCACTCGTTAAGTGCTAG | 0.719 |
| TTCGAACTGAGACTGGATTAGTGCTAG | -0.222 |
| CTTTCTTTTTTTCTTTTATTGTGCTAG | 5.99 |
| TTAGGTCTCCTTCGCCTTTAGTGCTAG | 1.19 |
| TCAAAGTTCATGTTCAAACTGTGCTAG | 0.0805 |
| GACGGTATCCGTATCCTGACGTGCTAG | 0.777 |
| GACGAACTAAGTTTCGAGACGTGCTAG | 2.8 |
| GACCGTCTCCTTATCCTGACGTGCTAG | 1.68 |
| GAGGGTCTCGGTCTCGGGACGTGCTAG | -0.573 |
| TCATGCTTTCCTTTATGACTGTGCTAG | 2.34 |
| CTAGGTTTCGGGTTTCGGTTAGTGCTA | 11.2 |

Single results of other studies
| Substance | target | test | test system | setting | how to read | measurement | result |
| --- | --- | --- | --- | --- | --- | --- | --- |
| PhoQ, residues 284 288 289 292 302 303 SSCCRF | PhoP, residues 12 14 15 18 19 IQFRS (Escherichia coli, UniProt P23836) | Sort-seq, refers to: YFP reporter | E. coli | PhoQ-PhoP variant library, added: 10 µM Mg2+ | relative to: high Mg2+ state, higher = stronger signaling | fold induction | 7.61 |
